Published values from different studies.
Every numbered part comes from another study and shows a few of its results, in no order. “And” joins repeats or separate records; there may be more than shown.
Sequence of UniProt Q14289 (whole entry, looked up): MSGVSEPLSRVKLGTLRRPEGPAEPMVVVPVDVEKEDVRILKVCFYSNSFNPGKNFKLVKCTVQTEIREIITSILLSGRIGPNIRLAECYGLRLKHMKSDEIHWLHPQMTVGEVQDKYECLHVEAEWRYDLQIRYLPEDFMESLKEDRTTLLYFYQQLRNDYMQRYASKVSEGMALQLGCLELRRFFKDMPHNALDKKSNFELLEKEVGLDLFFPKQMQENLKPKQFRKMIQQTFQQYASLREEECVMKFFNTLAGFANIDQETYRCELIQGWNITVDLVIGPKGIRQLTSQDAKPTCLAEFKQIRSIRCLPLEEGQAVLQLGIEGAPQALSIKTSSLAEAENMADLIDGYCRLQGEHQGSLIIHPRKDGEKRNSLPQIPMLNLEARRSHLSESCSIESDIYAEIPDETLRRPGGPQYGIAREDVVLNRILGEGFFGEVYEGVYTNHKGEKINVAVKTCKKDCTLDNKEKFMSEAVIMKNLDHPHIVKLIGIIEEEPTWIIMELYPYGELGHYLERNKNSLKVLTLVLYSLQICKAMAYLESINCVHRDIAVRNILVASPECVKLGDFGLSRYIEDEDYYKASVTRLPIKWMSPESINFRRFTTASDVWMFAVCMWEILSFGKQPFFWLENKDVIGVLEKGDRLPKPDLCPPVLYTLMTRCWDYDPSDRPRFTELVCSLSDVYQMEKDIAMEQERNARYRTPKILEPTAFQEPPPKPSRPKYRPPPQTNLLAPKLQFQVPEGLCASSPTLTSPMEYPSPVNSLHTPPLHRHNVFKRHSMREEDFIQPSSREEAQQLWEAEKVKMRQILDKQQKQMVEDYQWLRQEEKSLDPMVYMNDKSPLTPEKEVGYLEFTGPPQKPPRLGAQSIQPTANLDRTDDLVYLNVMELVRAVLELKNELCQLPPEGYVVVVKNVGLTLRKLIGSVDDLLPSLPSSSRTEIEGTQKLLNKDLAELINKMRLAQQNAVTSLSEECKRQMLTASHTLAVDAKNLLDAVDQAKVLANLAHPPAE
Sequence of UniProt Q7KZI7 (whole entry, looked up): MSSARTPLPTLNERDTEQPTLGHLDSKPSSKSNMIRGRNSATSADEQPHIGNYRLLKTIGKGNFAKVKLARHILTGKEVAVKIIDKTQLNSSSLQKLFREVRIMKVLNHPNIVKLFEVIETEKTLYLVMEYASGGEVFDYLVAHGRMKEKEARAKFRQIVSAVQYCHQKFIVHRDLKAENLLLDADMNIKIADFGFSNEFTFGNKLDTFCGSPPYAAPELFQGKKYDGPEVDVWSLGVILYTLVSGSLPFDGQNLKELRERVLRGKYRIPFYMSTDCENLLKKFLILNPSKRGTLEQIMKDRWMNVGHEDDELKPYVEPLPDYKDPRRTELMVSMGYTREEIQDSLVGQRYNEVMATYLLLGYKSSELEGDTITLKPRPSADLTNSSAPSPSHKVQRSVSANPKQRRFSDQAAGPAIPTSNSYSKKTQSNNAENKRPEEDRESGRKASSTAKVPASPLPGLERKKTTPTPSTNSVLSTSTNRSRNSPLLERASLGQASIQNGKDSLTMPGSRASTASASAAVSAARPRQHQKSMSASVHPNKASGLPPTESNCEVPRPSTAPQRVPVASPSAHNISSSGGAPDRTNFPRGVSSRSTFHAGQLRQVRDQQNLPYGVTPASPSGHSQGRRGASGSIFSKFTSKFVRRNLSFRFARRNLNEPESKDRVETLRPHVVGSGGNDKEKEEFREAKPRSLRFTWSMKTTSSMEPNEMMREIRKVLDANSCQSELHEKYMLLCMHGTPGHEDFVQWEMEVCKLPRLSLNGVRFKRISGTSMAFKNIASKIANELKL
Sequence of UniProt Q9H093 (whole entry, looked up): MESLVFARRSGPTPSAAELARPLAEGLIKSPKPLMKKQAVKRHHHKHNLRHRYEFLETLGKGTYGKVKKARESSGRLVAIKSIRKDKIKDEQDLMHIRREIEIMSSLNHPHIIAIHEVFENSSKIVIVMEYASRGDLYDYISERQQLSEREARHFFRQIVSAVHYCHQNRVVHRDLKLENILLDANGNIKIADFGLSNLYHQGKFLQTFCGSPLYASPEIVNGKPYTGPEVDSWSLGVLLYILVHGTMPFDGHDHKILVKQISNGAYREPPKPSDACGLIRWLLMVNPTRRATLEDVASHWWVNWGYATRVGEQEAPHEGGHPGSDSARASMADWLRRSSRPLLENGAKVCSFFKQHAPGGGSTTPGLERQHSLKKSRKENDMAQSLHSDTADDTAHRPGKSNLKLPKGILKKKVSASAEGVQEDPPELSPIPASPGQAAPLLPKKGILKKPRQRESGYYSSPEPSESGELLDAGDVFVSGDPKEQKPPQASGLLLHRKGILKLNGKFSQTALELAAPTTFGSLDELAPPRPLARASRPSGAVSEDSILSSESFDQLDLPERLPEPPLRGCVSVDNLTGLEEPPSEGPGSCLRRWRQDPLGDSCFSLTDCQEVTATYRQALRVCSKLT

Block 1 — effect on: enzyme activity; mode: inhibitor; tested at: 0.5 µM; baseline: control; measurement: remaining activity
Target: Tyrosine-protein kinase SYK (SYK, Homo sapiens, UniProt P43405)
CCN1/C(=C/C(C)=O)Sc2ccc(OC)cc21: 94.8%
CC(C)[C@H](CO)Nc1nc(Nc2cccc(Cl)c2)c2ncn(C(C)C)c2n1: 88.9%
CC(=O)O/N=C1/C(c2c(O)[nH]c3cc(Br)ccc23)=Nc2ccccc21: 88.3%
COc1cc2ncnc(Nc3ccc(OCc4ccccc4)cc3)c2cc1OC: 93.1%
Cc1nc(Nc2ncc(C(=O)Nc3c(C)cccc3Cl)s2)cc(N2CCN(CCO)CC2)n1: 65.5%
Cn1cnc2cc3c(Nc4cccc(Br)c4)ncnc3cc21: 98.5%
COc1ccc(-c2cnc3c(-c4ccsc4)cnn3c2)cc1: 101%
O=C(Nc1ccc(Cl)cc1)c1ccccc1NCc1ccncc1: 93.6%
Nc1[nH]nc2nnc(-c3c(-c4ccccc4)nn4ccccc34)cc12: 97.4%
CN(C)CCCn1cc(C2=C(c3c[nH]c4ccccc34)C(=O)NC2=O)c2ccccc21: 90%
C[S+]([O-])c1ccc(-c2nc(-c3ccncc3)c(-c3ccc(F)cc3)[nH]2)cc1 (centres unmarked): 98%
O=c1cc(N2CCOCC2)oc2c1ccc1ccccc12: 93%
CC(C)c1nn(-c2c(Cl)cccc2Cl)c2nc(Cc3ccc(OCCO)cc3)[nH]c(=O)c12: 98.6%
O=C1NC(=O)/C(=C/c2ccc3nccnc3c2)S1: 98%
Cn1cc(/C=C2\C(=O)Nc3ccc(S(N)(=O)=O)cc32)c2ccccc21: 16.5%
COc1cc2ncnc(N3CCN(C(=O)Nc4ccc(Oc5ccccc5)cc4)CC3)c2cc1OC: 93.2%
COc1ccc(Cl)cc1NC(=O)Nc1cc(C)nc2ccccc12: 88.2%
CCOc1cc2ncnc(Nc3cccc(Br)c3)c2cc1OCC: 95.6%
COc1cc2ncc(-c3ccccc3)nc2cc1OC: 92.5%
CCC(=O)Nc1ccc2ncnc(Nc3cccc(Br)c3)c2c1: 94.3%
CS(=O)(=O)CCNCc1ccc(-c2ccc3ncnc(Nc4ccc(OCc5cccc(F)c5)c(Cl)c4)c3c2)o1: 113%

Block 2 — effect on: enzyme activity; mode: inhibitor; tested at: 77 µM; baseline: untreated; measurement: remaining activity
Target: DNA polymerase theta, ATPase domain (POLQ, Homo sapiens, UniProt O75417)
Sequence of UniProt O75417 (whole entry, unmodified, looked up): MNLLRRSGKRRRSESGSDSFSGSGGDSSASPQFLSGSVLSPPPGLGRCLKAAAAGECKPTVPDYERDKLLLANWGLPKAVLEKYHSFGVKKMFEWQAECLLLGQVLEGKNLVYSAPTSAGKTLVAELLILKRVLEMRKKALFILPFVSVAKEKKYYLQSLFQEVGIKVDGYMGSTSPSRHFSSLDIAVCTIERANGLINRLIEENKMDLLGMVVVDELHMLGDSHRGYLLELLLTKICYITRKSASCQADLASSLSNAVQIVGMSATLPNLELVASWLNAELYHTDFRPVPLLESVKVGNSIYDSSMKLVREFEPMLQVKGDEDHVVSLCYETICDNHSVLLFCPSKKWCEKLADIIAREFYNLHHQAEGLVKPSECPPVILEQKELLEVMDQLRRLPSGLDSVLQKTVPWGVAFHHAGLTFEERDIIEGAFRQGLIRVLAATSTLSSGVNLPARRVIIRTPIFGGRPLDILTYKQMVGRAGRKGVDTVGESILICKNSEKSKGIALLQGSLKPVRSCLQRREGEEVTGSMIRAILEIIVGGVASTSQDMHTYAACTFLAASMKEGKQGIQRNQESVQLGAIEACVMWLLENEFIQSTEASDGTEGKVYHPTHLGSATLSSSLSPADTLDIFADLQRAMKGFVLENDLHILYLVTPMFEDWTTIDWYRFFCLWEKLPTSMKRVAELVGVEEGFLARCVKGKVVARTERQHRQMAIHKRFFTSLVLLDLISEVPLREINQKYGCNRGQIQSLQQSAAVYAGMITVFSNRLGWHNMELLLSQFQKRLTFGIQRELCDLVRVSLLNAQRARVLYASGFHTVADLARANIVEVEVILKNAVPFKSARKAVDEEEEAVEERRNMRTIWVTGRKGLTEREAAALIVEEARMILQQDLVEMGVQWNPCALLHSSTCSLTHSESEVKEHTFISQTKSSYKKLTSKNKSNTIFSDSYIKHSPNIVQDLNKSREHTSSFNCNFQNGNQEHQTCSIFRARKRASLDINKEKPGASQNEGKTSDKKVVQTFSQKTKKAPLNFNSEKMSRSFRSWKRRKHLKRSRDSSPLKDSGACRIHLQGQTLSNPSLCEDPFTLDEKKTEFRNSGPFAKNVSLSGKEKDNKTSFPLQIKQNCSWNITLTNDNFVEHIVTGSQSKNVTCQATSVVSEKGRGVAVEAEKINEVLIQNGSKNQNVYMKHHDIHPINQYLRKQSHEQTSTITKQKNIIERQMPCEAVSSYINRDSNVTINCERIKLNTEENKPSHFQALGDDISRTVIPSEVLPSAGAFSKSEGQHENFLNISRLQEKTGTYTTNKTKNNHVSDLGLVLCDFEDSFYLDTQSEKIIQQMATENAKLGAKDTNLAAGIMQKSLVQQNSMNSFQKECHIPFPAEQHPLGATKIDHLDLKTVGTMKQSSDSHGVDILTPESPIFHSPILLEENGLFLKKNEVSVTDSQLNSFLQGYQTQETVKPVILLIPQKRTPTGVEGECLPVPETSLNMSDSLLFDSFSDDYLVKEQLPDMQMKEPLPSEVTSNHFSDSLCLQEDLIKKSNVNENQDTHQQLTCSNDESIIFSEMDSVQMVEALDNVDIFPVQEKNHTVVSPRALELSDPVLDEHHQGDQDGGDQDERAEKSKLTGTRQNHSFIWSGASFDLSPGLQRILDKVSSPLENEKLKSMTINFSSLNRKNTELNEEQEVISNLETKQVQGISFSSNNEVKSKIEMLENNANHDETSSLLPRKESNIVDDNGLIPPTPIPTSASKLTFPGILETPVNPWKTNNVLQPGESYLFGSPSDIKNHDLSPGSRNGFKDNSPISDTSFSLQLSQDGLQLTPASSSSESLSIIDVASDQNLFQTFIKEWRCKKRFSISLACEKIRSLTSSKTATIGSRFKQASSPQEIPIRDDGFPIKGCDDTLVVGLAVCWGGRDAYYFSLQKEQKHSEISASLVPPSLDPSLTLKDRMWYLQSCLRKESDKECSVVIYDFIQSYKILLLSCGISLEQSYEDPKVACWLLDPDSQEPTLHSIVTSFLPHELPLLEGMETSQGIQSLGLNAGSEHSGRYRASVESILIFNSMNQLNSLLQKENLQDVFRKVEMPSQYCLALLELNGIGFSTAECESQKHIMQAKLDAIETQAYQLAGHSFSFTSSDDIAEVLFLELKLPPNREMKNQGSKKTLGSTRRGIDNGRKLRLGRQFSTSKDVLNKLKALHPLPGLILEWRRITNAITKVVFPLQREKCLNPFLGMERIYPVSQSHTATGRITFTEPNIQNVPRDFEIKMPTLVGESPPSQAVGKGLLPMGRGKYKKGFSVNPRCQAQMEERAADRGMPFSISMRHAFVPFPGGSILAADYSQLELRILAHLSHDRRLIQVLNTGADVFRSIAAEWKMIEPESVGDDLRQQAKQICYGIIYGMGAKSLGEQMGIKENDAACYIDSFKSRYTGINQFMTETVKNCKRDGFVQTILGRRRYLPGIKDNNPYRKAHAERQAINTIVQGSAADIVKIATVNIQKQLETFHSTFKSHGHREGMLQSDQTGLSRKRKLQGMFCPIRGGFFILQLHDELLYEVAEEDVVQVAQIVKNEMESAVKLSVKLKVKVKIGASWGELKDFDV
C=C1CC[C@H](O)C/C1=C/C=C1\CCC[C@]2(C)[C@@H]([C@H](C)CCCC(C)(C)O)CC[C@@H]12: 103%
COc1cc(C(=O)NC2CCCNC2)cc(OC)c1OC (centres unmarked): 96.3%
O=[N+]([O-])c1cccc2cn[nH]c12: 103%
CC(C)(F)C[C@H](N[C@@H](c1ccc(-c2ccc(S(C)(=O)=O)cc2)cc1)C(F)(F)F)C(=O)NC1(C#N)CC1: 87.4%
Cc1cc(O)c2c(c1)C(=O)c1cc(O)cc(O)c1C2=O: 95.1% and 93.2%
COc1nc(C)cnc1NS(=O)(=O)c1cccnc1-c1ccc(-c2nnco2)cc1: 100%

Block 3 — species: human; matrix: microsomes or S9; tested at: 2 µM; time: 0.5 h; measurement: remaining compound
CN(C)CCCn1c(-c2ccccc2)c(-c2ccccc2)c2c1ncn1nc(-c3ccncc3)nc21: 46.6%
COc1cc(-c2nc3c(c(=O)[nH]c(=O)n3CC(C)C)n2CC(C)C)cc(OC)c1OC: 81.7%
COC(=O)c1ccc(S(C)(=O)=O)c(O)c1Cl: > 99%
O=C1CC(c2ccccc2)=NN1c1nc(-c2ccc(Cl)cc2)cs1: 76.6%
Cc1ccc(O)c(C(=O)c2cnc(/N=C(\N)N(C)C)nc2)c1: 98.8%
O=S(=O)(c1cccc2cccnc12)n1ncc2c(Cl)ncnc21: 54.3%
O=C(COc1ccc(Cl)cc1Cl)Nc1nc2n(n1)C(c1ccccc1)CC(=O)N2 (centres unmarked): 37.6%

Block 4 — effect on: cell-free assay; method: competition with immobilised ligand; tested at: 1 µM; measurement: remaining binding
Compound: COc1ccc2c(c1)O[C@H](c1ccc(OC)c(OC)c1)C[C@@H]2NC(=O)C1(c2ccc3c(c2)OC(F)(F)O3)CC1
1-phosphatidylinositol 3-phosphate 5-kinase (PIKFYVE, Homo sapiens, UniProt Q9Y2I7): 89%
Receptor-type tyrosine-protein kinase FLT3 (FLT3, Homo sapiens, UniProt P36888): 100%
Serine/threonine-protein kinase TAO1 (TAOK1, Homo sapiens, UniProt Q7L7X3): 100%
NUAK family SNF1-like kinase 1 (NUAK1, Homo sapiens, UniProt O60285): 95%
NUAK family SNF1-like kinase 2 (NUAK2, Homo sapiens, UniProt Q9H093): 100%
Casein kinase II subunit alpha' (CSNK2A2, Homo sapiens, UniProt P19784): 100%
Homeodomain-interacting protein kinase 1 (HIPK1, Homo sapiens, UniProt Q86Z02): 87%
Tyrosine-protein kinase ABL2 (ABL2, Homo sapiens, UniProt P42684): 100%
Serine/threonine-protein kinase 32B (STK32B, Homo sapiens, UniProt Q9NY57): 100%
Serine/threonine-protein kinase PLK3 (PLK3, Homo sapiens, UniProt Q9H4B4): 100%
Phosphatidylinositol 3-kinase C2 domain-containing subunit gamma (PIK3C2G, Homo sapiens, UniProt O75747): 61%
Serine/threonine-protein kinase D1 (PRKD1, Homo sapiens, UniProt Q15139): 100%
Serine/threonine-protein kinase MARK2 (MARK2, Homo sapiens, UniProt Q7KZI7): 100%
Protein-tyrosine kinase 2-beta (PTK2B, Homo sapiens, UniProt Q14289): 100%
Serine/threonine-protein kinase pim-2 (PIM2, Homo sapiens, UniProt Q9P1W9): 100%
Dual specificity tyrosine-phosphorylation-regulated kinase 2 (DYRK2, Homo sapiens, UniProt Q92630): 100%
Mitogen-activated protein kinase kinase kinase 20 (MAP3K20, Homo sapiens, UniProt Q9NYL2): 97%
Myosin light chain kinase 2, skeletal/cardiac muscle (MYLK2, Homo sapiens, UniProt Q9H1R3): 95%
Phosphatidylinositol 4,5-bisphosphate 3-kinase catalytic subunit alpha isoform (PIK3CA, Homo sapiens, UniProt P42336, I800L): 97%
Mitogen-activated protein kinase kinase kinase 4 (MAP3K4, Homo sapiens, UniProt Q9Y6R4): 98%
Tyrosine-protein kinase ABL1, phosphorylated (ABL1, Homo sapiens, UniProt P00519, E255K): 90%
Tyrosine-protein kinase JAK1, JH1 (JAK1, Homo sapiens, UniProt P23458): 100%

Some of these lines once more (block 1):
CCN1/C(=C/C(C)=O)Sc2ccc(OC)cc21: 94.8%
CN(C)CCCn1cc(C2=C(c3c[nH]c4ccccc34)C(=O)NC2=O)c2ccccc21: 90%
Cc1nc(Nc2ncc(C(=O)Nc3c(C)cccc3Cl)s2)cc(N2CCN(CCO)CC2)n1: 65.5%
COc1cc2ncnc(Nc3ccc(OCc4ccccc4)cc3)c2cc1OC: 93.1%
